Measured values from different studies.
A part holds a random share of what one study measured. Substitutions count along the parent as printed.

Block 1 — method: aptamer microarray, sandwich; form: DNA with 2'F-ANA; sample: in vitro; tested at: 200 nM; together with: Cy3 exosite-II aptamer, 400 nM; reading: higher = stronger binding; measurement: mean fluorescence intensity; sequence: GGTTGGTGTGGTTGG
Target: Prothrombin, mature alpha-thrombin (F2, Homo sapiens, UniProt P00734)
Setting: whole 15-mer aptamer, many near background
2'F-ANA at 1 2 7 8 14: 67.3 a.u.
2'F-ANA at 2 3 4 7 11 12 14: 365 a.u.
2'F-ANA at 3 4 6 7 9 10 12 14: 169 a.u.
2'F-ANA at 1 4 7 9 10 11 14: 89.4 a.u.
2'F-ANA at 2 6 7 9 12 13 14: 126 a.u.
2'F-ANA at 1 2 3 6 11 12 15: 317 a.u.
2'F-ANA at 1 3 4 6 8 9 12 13: 260 a.u.
2'F-ANA at 1 4 5 7 8 10 11 12 15: 50.2 a.u.

Block 2 — method: EMSA with sequencing; form: double-stranded DNA, one strand shown; sample: in vitro; tested at: 10 and 20 nM; reference: negative control set to 0; reading: higher = stronger binding; measurement: normalised bound fraction
Target: Hepatocyte nuclear factor 3-alpha (Foxa1, Mus musculus, UniProt P35582, residues 1-468, full length assumed)
Setting: whole designed probe, mean of two concentrations, ends assumed
All sequences stand within: GTGAGCGGTGCCCATTGATGGGGAAC … TTTCACTGGGATCGTGGGGAC
Target sequence (chain): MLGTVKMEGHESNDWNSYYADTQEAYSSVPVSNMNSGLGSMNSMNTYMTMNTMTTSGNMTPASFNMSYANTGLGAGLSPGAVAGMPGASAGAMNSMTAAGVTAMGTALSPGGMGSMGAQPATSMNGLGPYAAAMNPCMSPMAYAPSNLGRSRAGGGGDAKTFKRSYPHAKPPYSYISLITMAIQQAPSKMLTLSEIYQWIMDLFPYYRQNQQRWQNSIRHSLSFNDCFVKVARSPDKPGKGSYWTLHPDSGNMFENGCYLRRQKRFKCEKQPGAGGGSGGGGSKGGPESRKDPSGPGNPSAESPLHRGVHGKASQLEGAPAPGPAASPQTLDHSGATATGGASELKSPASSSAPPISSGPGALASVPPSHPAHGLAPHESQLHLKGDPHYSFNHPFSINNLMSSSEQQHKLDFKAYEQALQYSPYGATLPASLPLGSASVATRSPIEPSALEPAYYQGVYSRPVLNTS
CCACTTTCATATGCTTCTGTAAAACCATCAAGCTGAATCGAATTCTCTTCAGGTATTCTTATCTCCCCGTAACTTGCCTTTGGTTCAGTCTCCATGTTTACATTCCCTTTATTTACAGGACTCCGCCTTTTATCTTTCTTTTGAGCTAAAAAAAGCAACCTGGCTGGAGGTAATTATACTGAGAAATTCTTTA: 0.319 ratio
ATTTTATAAGACATCGAAGGAAAAAATGAAATTAGAATAAGCATTCTTTTGTTTTGTTTTGTTTAAGTAAGGAAAACAAAAATAGAAAGACAATGTAATCTTCAGTGGGGAAATGTAAGTATGAACACACGAGGAACCATCTGGGAAAGTGATCACAGGATATGATACAGCACATGAAAAAATACACAAATAG: 0.24 ratio
GCATGAGACAGCATTTCTTCTTGTCCTCGGGGCCTGCAGGAAGTTTTTAAGTAATCTGCTTTTGTGCCTCTTCCAAATCTCCTCCTATGACCCAGATTACCTTACATCACAAGAAACAATCAATAAAAGTGGTTTGTGTTCGTGAGTGCCGTGTGTTTGACAAAGGCGTTGATAACTGAGAGCTGGTAGTGGA: 0.00933 ratio
AGGTTGTCTGGACAAAAGTTGTATCTACCAAACTAAATGTGTACCAAGTGAGATATCCAAGGTCACTTAGCAAACATTCTGTTAGGGATAATGTAAACATGAAAAGAAATTTAAGGATTTTTTTTTTTAAGACTGTTTTTGGAAACAACCAAGAGGAGAGACAAAAGGCACTTCAGTGAGGACTTTAAGCCAG: 0.374 ratio
GCCAGGATTGGGGTGGGTGGGTGAGGAGGAGAGAGCCACAAAATGATAAGAGTGGAGAGCAGTGTGGGGCCCTCCCTTTGAGGGAAAGCCGTTGTTTACATAGGGTAGTAGGCCTTGTTGGCCTGATCAAGAGATGAAGCCATAACTCTTAAAAACCTTCAGAACCAAACGCTGTGTCTGCATCCATCTGTTC: 0.462 ratio
ATCCACGAACCTGGCCCTGTCTGGTAACCACAGTGAACCATCGCAAGATACAGCACTATGTGCCCAGTTGGGCTGGTAATGTCACACAAATGTGTCAACACTGGCACATAATGACTCACACGGAAGTGTACTTGTTTTTGGAGAGGGACTAGACCTTCATCCTTGAGGTGAAGAAGATTTTCTCTCCAGGGTG: 0.0657 ratio
ATCTTCCCCCTCTTCCTTGCCCCACCAGCTCACCTACGGGGGTTATTTGCACAAAGGAAAATAAATAAAGCCGGCATTCGTTAACCCTCTTCTGGCGCAAACTGCTGTTTGCTCTGGATGAATCATGGTCCTTTGGCGAGGCGTGGCTCCGGGAGAGCAAAGCACCGTGTCAGGGCCATGATCCGGGCTCGCC: 0.38 ratio
ATTTGTGTTACTTCCTAATTTGGGCAATTATACAATTGCTGTGAACATCTGAGTATAGGTTTTCATGTAAACAGAATTTTTCTTTCATCTAGGGTAAATACCTAAGTGTGGAGTTGCTGAGTCATATGATAAATGTATGGTTAATAGTATAAGAAGCTGCCAAACTTTTGTGCATAGTGGACAGACCGTTTTA: 0.101 ratio

Block 3 — method: RNA Bind-n-Seq; form: RNA; sample: in vitro; tested at: 200 nM; setting: whole 134-nt RNA, ends assumed; together with: 150 mM LiCl; reference: input library; reading: higher = stronger binding; measurement: log2 enrichment; all molecules: 7-deaza-guanosine replaces G
Target: Ras GTPase-activating protein-binding protein 1, full length (G3BP1, Homo sapiens, UniProt Q13283)
Sequence of UniProt Q13283 (whole entry, looked up): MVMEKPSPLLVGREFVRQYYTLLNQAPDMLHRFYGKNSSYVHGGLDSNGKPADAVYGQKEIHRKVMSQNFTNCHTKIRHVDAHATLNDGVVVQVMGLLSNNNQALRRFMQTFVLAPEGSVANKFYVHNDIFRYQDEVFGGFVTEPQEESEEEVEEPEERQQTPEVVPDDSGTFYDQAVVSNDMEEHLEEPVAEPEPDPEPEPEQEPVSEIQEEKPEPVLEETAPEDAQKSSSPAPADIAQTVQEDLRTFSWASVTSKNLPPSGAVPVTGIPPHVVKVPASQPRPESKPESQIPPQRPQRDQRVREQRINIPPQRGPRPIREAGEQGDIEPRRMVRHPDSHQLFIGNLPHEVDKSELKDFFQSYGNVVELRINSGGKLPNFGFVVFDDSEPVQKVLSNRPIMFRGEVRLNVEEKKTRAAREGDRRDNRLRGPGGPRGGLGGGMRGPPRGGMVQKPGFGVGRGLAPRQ
All sequences stand within: GGGAGUUCUACAGUCCGACGAUC … UGGAAUUCUCGGGUGUCAAGG
UGCAGCUCUCCGGCUGGGAUCCUGGUUGACGCCAUGUCCCAGAAGCACCUUCAGAUCAACCAGACAUUUGAGGAGCUGCGACUGGUCACG: -1.56
GCAGGAAGUAAAAACAAUUGGAAAUGCUUCGGAUAGUGGCAGGGGUGGGGGUUGCUAAGGAAAGGGUGGGAUGGGAGUGGGUAAAGAGUU: 0.0707
GUCCUGUGCUACACAUCGUAUGUACCGAAUCAAACCCCCAAACCCCCAAAUUUUUAAAAAAGUAUUAUGUUACGCCGUUCGGAUCUGCAC: 0.734
UUCUCUAAGAGGAACUCCGGCGCGUCAGAGUAACAGAAGCGAGAGCACAGACAGUCUUGGGGGCUUGUCUCCCUCUGAAGUCACAGCCAU: 0.291
ACCAUGCAAAUGGGCAUCUUUGGGAAGUGGGGCAAGGGGGGGAUAGGGAGGGGGGUAACACUUUGGGAACAGGUGGUCCCAGGUCGUUUC: 0.376
AAGUCCUGUGCUACACAUCGUAUGUACCGAAUCGGGUUUUUGGGUUUUUGGGAGGGAAAGUAUUAUGUUACGCCGUUCGGAUCUGCACUU: 0.159
AGUCCUGUGCUACACAUCGUAUGUACCGAAUCGGGGCCCCGGGCCCCGGGCCCCGGGAAAGUAUUAUGUUACGCCGUUCGGAUCUGCACU: -1.75
ACCAUGCAGGUGGGCAUCUUUGGGAAGUGGGGCAAGGGGGGGAUAGGGAGGGGGGUAACGCUUUGGGAACAGGUGGUCCCAGGUCGUUUC: 0.0783

Other studies, line by line — parent: viral docking peptide; TSVRRALFTGGSD
L7W  normalised enrichment score (CCNF, cyclin fold, Cln2 fusion (human); yeast growth competition, sequencing; yeast; strong parent motif; reference: not given, higher = stronger binding): 0.547

For quick reference, copied from above (block 3):
ACCAUGCAAAUGGGCAUCUUUGGGAAGUGGGGCAAGGGGGGGAUAGGGAGGGGGGUAACACUUUGGGAACAGGUGGUCCCAGGUCGUUUC: 0.376
AAGUCCUGUGCUACACAUCGUAUGUACCGAAUCGGGUUUUUGGGUUUUUGGGAGGGAAAGUAUUAUGUUACGCCGUUCGGAUCUGCACUU: 0.159
